Measured values pooled from the literature.
A part holds a random share of what one study measured. Several values in a cell are separate wells, animals, samples, runs or records.
Chain of UniProt P42336 (whole entry, unmodified, looked up): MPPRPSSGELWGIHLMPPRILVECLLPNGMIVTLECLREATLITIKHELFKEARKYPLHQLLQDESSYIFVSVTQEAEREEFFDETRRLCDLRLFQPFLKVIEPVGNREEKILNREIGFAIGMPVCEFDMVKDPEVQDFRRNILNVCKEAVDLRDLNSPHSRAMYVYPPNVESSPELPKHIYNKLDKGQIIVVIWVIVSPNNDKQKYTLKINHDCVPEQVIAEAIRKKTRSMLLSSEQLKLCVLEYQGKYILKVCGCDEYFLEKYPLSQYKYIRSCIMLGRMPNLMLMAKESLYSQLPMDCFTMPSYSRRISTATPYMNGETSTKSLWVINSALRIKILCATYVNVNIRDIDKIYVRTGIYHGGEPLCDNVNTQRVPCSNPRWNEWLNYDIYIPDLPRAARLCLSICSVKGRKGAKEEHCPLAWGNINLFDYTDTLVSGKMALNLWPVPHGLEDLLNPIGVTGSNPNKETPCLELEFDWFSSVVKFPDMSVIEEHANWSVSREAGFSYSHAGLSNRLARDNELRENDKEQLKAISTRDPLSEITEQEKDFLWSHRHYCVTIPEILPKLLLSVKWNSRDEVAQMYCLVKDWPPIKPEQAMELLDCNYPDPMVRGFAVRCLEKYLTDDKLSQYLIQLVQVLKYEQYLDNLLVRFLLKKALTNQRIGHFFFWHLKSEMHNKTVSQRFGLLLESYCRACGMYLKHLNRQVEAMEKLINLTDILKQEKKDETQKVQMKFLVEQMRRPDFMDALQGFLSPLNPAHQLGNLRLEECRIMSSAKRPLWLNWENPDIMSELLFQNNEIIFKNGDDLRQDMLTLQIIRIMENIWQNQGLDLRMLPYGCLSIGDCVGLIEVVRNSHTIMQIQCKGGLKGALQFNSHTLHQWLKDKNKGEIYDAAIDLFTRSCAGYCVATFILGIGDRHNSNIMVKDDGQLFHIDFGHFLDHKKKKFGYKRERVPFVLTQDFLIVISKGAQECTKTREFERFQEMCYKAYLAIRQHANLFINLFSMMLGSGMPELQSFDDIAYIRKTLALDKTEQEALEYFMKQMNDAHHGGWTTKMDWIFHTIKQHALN
Chain of UniProt Q08345 (whole entry, looked up): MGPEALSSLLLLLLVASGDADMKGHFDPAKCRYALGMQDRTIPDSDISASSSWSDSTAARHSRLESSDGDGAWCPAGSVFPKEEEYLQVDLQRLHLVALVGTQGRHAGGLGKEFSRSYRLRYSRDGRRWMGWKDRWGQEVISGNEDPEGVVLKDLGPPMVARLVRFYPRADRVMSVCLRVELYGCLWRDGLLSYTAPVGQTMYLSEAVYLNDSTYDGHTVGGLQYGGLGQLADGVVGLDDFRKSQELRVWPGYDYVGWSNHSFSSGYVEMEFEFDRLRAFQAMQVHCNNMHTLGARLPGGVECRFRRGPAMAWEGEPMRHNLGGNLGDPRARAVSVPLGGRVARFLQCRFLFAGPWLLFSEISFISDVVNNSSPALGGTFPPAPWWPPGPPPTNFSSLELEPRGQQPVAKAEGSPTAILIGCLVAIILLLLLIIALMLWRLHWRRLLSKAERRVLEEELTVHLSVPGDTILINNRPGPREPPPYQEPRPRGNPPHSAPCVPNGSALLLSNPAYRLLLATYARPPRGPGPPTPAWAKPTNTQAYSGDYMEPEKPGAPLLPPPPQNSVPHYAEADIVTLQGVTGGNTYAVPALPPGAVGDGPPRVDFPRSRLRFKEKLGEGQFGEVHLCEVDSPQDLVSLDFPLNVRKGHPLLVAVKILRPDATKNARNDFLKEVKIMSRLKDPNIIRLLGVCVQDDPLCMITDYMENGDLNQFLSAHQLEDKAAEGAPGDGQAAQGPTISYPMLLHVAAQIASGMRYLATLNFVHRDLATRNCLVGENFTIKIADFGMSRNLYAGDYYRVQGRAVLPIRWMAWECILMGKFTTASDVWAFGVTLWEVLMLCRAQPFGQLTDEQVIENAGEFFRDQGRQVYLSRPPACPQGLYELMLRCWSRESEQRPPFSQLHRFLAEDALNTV
Chain of UniProt P68400 (whole entry, looked up): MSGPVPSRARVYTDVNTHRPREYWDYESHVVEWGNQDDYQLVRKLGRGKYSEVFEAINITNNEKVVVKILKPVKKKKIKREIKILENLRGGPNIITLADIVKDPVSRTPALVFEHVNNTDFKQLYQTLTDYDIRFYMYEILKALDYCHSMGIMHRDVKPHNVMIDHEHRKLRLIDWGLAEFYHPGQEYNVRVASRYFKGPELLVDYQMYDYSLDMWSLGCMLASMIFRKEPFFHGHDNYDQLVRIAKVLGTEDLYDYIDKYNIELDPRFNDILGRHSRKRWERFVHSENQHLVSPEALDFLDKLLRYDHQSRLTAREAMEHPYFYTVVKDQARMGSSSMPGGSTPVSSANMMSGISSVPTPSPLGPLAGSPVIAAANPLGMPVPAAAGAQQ
Chain of UniProt Q8TDR2 (whole entry, looked up): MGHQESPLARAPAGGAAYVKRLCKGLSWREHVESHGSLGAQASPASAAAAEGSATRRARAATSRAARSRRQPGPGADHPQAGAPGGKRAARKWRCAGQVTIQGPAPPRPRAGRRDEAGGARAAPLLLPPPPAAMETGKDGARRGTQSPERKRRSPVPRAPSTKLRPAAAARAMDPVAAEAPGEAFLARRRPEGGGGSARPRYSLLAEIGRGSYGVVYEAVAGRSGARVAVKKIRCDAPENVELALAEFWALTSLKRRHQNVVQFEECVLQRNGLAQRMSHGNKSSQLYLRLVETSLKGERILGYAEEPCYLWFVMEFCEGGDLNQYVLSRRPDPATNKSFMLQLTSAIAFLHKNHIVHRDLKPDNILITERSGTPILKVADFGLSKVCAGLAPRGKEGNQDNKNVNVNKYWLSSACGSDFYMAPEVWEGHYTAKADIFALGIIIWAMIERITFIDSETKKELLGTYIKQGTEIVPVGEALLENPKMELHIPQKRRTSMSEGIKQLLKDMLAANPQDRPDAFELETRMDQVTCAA
Chain of UniProt Q96Q40 (whole entry, looked up): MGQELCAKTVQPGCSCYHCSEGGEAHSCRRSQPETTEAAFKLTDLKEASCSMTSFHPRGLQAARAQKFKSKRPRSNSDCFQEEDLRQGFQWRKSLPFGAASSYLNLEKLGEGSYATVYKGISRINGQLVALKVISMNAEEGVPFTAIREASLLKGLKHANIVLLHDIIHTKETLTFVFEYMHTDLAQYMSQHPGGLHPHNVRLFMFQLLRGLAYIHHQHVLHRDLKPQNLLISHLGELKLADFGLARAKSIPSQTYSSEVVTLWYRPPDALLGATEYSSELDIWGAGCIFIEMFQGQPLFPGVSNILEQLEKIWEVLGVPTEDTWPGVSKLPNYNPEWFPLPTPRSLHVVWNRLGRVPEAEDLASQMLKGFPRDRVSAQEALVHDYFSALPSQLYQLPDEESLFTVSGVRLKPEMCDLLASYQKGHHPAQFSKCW
Chain of UniProt Q9UQM7 (whole entry, looked up): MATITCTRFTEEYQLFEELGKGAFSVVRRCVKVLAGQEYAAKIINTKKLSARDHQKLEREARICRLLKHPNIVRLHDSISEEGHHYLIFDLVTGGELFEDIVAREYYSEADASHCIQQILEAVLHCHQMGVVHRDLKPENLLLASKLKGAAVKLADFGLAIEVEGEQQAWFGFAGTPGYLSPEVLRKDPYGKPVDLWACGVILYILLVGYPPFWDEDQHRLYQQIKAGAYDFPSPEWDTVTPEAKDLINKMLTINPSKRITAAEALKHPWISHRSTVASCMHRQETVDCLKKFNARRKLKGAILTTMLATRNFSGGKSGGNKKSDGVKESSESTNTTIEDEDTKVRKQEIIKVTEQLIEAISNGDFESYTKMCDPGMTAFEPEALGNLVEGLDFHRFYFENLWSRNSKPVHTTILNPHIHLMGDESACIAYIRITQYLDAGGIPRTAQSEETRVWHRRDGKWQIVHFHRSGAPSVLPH
Chain of UniProt Q13043 (whole entry, looked up): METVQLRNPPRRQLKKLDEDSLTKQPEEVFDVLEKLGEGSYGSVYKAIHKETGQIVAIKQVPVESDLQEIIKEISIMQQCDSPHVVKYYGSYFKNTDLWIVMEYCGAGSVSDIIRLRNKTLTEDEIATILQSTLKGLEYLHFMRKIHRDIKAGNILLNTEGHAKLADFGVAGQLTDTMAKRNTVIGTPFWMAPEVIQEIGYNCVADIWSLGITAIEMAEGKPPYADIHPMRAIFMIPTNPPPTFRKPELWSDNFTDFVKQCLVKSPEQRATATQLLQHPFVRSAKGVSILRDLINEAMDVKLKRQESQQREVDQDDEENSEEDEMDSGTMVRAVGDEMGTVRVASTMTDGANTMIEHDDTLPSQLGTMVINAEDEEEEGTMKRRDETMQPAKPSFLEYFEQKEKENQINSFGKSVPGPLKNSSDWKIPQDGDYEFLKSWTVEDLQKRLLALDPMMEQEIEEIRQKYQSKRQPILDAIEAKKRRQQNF

Series 1 — cell line: mouse MPNST tumor cells; technique: high-content immunofluorescence imaging; item: nuclear SOX9; concentration: 10 µM; time: 12 h; setting: mean of 2 replicates; baseline: DMSO control; reading: higher = more nuclear SOX9
SMILES | nuclear SOX9 intensity
CC(=O)Oc1cc(C(C)C)c(OCCN(C)C)cc1C | 115 % of DMSO
CC1CNCCN1S(=O)(=O)c1cccc2cnccc12 (stereo not shown) | 90.6 % of DMSO
CN(Cc1cnc2nc(N)nc(N)c2n1)c1ccc(C(=O)N[C@@H](CCC(=O)O)C(=O)O)cc1 (racemic) | 115 % of DMSO
O=[N+]([O-])c1cccc2c(Br)[nH]nc12 | 107 % of DMSO
CCCOc1ccccc1-c1nc2[nH]nnc2c(=O)[nH]1 | 96.5 % of DMSO and 110 % of DMSO
O=C(COc1ccccc1Cl)Nc1cc(Cl)ccc1C(=O)O | 117 % of DMSO

Series 2 — action: antagonist
Target: Beta-1 adrenergic receptor (ADRB1, Homo sapiens, UniProt P08588)
Chain of UniProt P08588 (whole entry, looked up): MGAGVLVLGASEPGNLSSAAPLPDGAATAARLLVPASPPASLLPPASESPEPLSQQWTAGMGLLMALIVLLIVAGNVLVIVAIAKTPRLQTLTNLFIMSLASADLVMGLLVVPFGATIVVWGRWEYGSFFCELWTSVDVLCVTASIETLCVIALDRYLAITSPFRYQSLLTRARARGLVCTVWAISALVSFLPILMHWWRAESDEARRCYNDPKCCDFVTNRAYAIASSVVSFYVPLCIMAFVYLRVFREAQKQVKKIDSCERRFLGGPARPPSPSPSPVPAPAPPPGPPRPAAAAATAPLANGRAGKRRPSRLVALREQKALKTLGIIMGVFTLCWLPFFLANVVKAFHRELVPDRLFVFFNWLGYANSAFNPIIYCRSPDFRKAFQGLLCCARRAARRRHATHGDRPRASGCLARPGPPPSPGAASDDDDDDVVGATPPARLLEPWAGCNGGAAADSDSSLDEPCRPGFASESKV
SMILES | IC50 [µM]
Fc1ccc(-c2c[nH]c([C@@H]3COCCN3Cc3cnc4ccccc4c3)n2)c(F)c1 | ≥ 100
O=c1cc(N2CCNCC2)oc2c(-c3ccccc3)cccc12 | ≥ 100
COc1ccc(OC)c(C(O)Cn2ccn3nc(-c4ccc(C(C)C)cc4)cc3c2=O)c1 (stereo not shown) | ≥ 100
COc1ccccc1N1CCN(c2ncccc2CNC(C)Cn2ccnc2)CC1 (stereo not shown) | ≥ 100
CN(C)c1ccc(-c2nnnn2[C@H]2CO[C@H]3[C@@H]2OC[C@@H]3N[S+](=O)([O-])c2ccc3ccccc3c2)cc1 | ≥ 100
CC#CCn1cc2c3c(cccc31)[C@H](CC(C)C)N[C@H](C(=O)NCCOC)C2 | ≥ 100

Series 3 — species: mouse; sample: microsomes or S9; concentration: 2 µM; time: 0.5 h
Compound | remaining compound [%]
CCOc1ccc(OCC)c(NC(=O)c2cc3sc(Cl)cc3n2CC)c1 | 73.8
CC[C@@H](C)[C@H](NS(=O)(=O)c1ccccc1)C(=O)O | 99.4
COC(=O)CCN(Cc1ccncc1)c1ncnc2c(F)cccc12 | > 99.9
Cn1cc(C(NC(=O)c2c[nH]c3c(F)cccc3c2=O)[C@H]2C[C@@H](O)C2)cn1 (stereo partly shown) | > 100
Cc1cc(N2CCCC(N3CCN(C(=O)Nc4cc(C)on4)CC3)C2=O)n(C)n1 (stereo not shown) | > 100
CCc1c(C)sc(NC(=O)CN2CCN(C(=O)C3CCCO3)CC2)c1C(=O)OC (stereo not shown) | 0.00886
Cc1nc(CN2CCN(c3cnc4ccccc4n3)CC2)oc1C | 83.6

Series 4 — read-out: cell-free assay; technique: competition with immobilised ligand; concentration: 0.1 µM
Structure (SMILES): CC(C)CC(=O)N1CCc2nc(-c3ccc(Br)cc3)nc(N(C)Cc3ccccc3)c2C1
target | remaining binding
MUSK (Homo sapiens, UniProt O15146) | 100%
STK4 (Homo sapiens, UniProt Q13043) | 100%
Tyrosine-protein kinase JAK3, JH1 (JAK3, Homo sapiens, UniProt P52333) | 98%
ANKK1 (Homo sapiens, UniProt Q8NFD2) | 100%
eIF-2-alpha kinase GCN2, C-terminal kinase domain (EIF2AK4, Homo sapiens, UniProt Q9P2K8, S808G) | 100%
STK35 (Homo sapiens, UniProt Q8TDR2) | 96%
PIK3CA (Homo sapiens, UniProt P42336, E545K) | 85%
CAMK2A (Homo sapiens, UniProt Q9UQM7) | 100%
MAPKAPK5 (Homo sapiens, UniProt Q8IW41) | 100%
CDK15 (Homo sapiens, UniProt Q96Q40) | 100%
NEK1 (Homo sapiens, UniProt Q96PY6) | 100%
Aurora kinase A (AURKA, Homo sapiens, UniProt O14965) | 72%
CSNK2A1 (Homo sapiens, UniProt P68400) | 100%
EGFR (Homo sapiens, UniProt P00533, L858R) | 94%
DDR1 (Homo sapiens, UniProt Q08345) | 100%

Excerpt of the above (series 4):
target | remaining binding
eIF-2-alpha kinase GCN2, C-terminal kinase domain (EIF2AK4, Homo sapiens, UniProt Q9P2K8, S808G) | 100%
CSNK2A1 (Homo sapiens, UniProt P68400) | 100%
Tyrosine-protein kinase JAK3, JH1 (JAK3, Homo sapiens, UniProt P52333) | 98%
